Published values collected from several papers.
Each numbered part is a random draw from the data of one study; scales do not carry over between parts. Positions count from the first letter of the parent shown.

Block 1
Target: CCND1, cyclin fold, Cln2 fusion (human)
Technique: yeast growth competition, sequencing
Sample: yeast
Notes: weak parent motif
Reference: not given
Direction: higher = stronger binding
Endpoint: normalised enrichment score
Starting sequence: CDC25A docking peptide (human); PPHRRRLLFACSP; partner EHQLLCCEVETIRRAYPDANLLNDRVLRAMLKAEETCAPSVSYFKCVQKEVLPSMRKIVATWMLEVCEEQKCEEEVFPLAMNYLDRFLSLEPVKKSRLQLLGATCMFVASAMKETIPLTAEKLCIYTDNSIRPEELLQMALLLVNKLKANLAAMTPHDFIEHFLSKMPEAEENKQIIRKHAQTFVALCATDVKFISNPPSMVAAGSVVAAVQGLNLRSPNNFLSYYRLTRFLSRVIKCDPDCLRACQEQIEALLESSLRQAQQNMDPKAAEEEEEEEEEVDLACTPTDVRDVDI
R4T: 0.378
C11H: 0.0616
L8P: -0.451
R4N: 0.462
A10V: -0.211
P1N: 0.0312
R6E: -0.0384
P2T: 0.584
C11S: 0.0647
L8E: -0.151
P1D: -0.0856
A10Y: -0.272
P13L: 0.069
S12Y: 0.439
R6V: 0.168
L8S: -0.0398
P2R: 0.472
P1M: 0.0374
R6Y: -0.117
R6S: -0.158
P13H: 0.353
L7C: 0.0865
P1I: 0.181
F9G: 0.349
P1L: -0.21

Block 2
Target: Sal-like protein 4, full length isoform A (SALL4, Homo sapiens, UniProt Q9UJQ4, residues 1-1053)
Chain of UniProt Q9UJQ4 (whole entry, looked up): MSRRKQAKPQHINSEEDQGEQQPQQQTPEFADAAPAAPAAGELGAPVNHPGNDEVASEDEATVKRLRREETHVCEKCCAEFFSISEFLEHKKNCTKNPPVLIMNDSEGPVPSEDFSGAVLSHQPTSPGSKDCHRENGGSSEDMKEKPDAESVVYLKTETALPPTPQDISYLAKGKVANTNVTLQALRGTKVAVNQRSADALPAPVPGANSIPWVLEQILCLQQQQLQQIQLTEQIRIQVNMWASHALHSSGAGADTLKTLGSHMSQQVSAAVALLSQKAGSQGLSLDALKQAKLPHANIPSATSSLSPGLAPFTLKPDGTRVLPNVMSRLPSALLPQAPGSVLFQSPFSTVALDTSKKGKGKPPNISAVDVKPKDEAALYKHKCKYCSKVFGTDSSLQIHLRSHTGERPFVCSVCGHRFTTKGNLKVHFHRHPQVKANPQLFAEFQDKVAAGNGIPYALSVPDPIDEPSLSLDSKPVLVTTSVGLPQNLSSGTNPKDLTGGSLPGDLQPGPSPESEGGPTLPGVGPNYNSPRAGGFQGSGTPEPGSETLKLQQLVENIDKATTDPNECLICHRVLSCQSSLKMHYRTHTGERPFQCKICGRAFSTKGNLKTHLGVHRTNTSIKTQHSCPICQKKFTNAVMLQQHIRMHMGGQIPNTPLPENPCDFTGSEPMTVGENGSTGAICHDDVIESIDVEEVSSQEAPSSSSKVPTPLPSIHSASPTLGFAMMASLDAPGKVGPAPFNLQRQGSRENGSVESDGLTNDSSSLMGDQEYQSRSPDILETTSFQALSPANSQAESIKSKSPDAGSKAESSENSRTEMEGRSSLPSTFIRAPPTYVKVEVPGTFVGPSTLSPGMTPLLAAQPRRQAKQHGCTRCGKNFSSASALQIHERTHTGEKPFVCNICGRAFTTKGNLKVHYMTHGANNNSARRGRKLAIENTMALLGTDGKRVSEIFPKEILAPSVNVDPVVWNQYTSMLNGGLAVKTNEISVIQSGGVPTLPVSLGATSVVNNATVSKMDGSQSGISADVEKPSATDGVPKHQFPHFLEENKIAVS
Technique: universal PBM
Form: double-stranded DNA, one strand shown
Sample: in vitro
Tested at: 600 nM
Notes: 8-mer, flanks averaged, mean of replicates
Direction: higher = stronger binding
Endpoint: E-score
AGAGCATG: -0.0881
AGACGACA: -0.0251
GCAGCAGA: -0.184
GGCTGTAA: -0.027
AAATGTGG: 0.19
CAATTGAA: 0.137
AAGGAACT: 0.0313
CCCGCGCC: -0.364
AAAACCGC: -0.153
AAGTGGAT: 0.00142
TCTAAAAA: 0.222
AATCGTGA: 0.0729
CAACGTGA: -0.0959
ATTTTAAC: 0.23
CCTGGACC: -0.229
AAGAGGCG: -0.169
GTGACGCA: -0.172
CGGTCTTC: -0.265
CATGTAGC: -0.00475
ATCTTATG: 0.185
ACCAGCTG: -0.283

Block 3
Target: PABPC1L2, full length, GST fusion (mouse, UniProt A0ABA7IW68)
Technique: RNAcompete
Form: RNA
Sample: in vitro
Tested at: 20 nM
Notes: 7-mer, probes averaged, single round
Reference: mean of 7-mers
Direction: higher = stronger binding
Endpoint: 7-mer Z-score
Construct (chain): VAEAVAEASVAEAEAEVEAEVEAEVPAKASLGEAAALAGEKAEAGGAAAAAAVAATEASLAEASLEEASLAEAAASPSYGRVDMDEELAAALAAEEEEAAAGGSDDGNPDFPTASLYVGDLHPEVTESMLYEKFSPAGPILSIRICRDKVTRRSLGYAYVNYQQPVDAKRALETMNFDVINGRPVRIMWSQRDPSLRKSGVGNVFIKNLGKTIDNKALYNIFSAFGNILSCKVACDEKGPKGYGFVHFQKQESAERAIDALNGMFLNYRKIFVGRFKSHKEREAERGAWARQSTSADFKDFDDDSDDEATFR
GGAAAGC: 0.0714
AAAACUG: 4.91
AGUGUUU: -0.411
AAACACA: 3.04
GUGGGGC: 0.425
CUAAUCU: -0.267
AGAACCG: -0.13
CAUUUCA: -0.226
CUACGAG: -0.00652
AUAAUAG: -0.0047
GGACACC: 0.0696
ACUCGCG: -0.289
UGGUGCU: -0.266
CCCCAUC: -0.485
ACCGUGC: -0.0844
UUUCGCG: -0.454
GAAUAGA: 0.164
GCGUUGU: -0.113
UCCUGUC: -0.405
UCGAUCC: -0.407
UCCGCUC: -0.46

Block 4
Target: Fragile X messenger ribonucleoprotein 1, C-terminal low-complexity region (Fmr1, Mus musculus, UniProt P35922)
Technique: RNA Bind-n-Seq
Form: RNA
Sample: in vitro
Tested at: 200 nM
Notes: whole 134-nt RNA, ends assumed
Together with: 150 mM LiCl
Reference: input library
Direction: higher = stronger binding
Endpoint: log2 enrichment
All molecules: 7-deaza-guanosine replaces G
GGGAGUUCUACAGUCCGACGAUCCAAGUCCUGUGCUACACAUCGUAUGUACCGAAUCGGGCCCGGGGCCCGGGCCCGGGAAAGUAUUAUGUUACGCCGUUCGGAUCUGCACUUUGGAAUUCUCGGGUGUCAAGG: -2.68
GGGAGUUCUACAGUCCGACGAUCGCAGGAAGUAAAAACAAAUGGAAAUGCUUCGGAGAGUGGCAGGGGUGGGGGUUGCUAAGGAAAGGGUGGGAUGGGAGUGGGUAAAGAGUUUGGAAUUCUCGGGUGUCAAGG: 1.45
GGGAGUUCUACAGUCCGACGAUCCACAGACAACACGCACCCACACAGACACAGAGCGAAGGGGUUGGGAUGGGGACAGGGUGCACAGCAGGGCGGGGUAGGACCCCAGCCCCUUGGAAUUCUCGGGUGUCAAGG: 0.278
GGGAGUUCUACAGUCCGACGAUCCACAGACAACACGCACCCACACAGACGCAGAGGGAAGGGGUUGGGAUGGGGACAGGGUGCACAGCAGGGCGGGGUAGGACCCCAGCCCCUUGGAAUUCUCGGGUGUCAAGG: 0.536
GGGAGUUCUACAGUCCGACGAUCCUCAAGUCCUGUGCUACACAUCGUAUGUACCGAAUCGGGUUGGUUGGGUUGGGGAAAGUAUUAUGUUACGCCGUUCGGAUCUGCACUUCCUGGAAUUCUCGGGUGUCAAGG: -1.06
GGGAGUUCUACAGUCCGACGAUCUAACUUUAGAGGAGGAUCUGAUGGAUAUGGCAGUGGACGUGGAUUUGGGGAUGGCUAUAAUGGGUAUGGAGGAGGACCUGGAGGAGGCAAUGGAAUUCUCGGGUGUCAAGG: 0.763
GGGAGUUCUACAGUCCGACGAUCACCAUGCAGGUGGGCAUCUUUGGGAAGUGGGGCAAGGGGGGGAUAGGGAGGGGGGUAACACUAUGGGAACAGGUGGUCCCAGGUCGUUUCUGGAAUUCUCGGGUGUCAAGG: 1.66
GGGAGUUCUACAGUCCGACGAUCUGCGAUAUGAACGUUCACAAGCAAUGCGUCAUCAAUGUCCCCAGCCUCUGCGGAAUGGAUCACACUGAGAAGAGGGGGCGGAUUUACCUAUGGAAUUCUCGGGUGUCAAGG: -0.771
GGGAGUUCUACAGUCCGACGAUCUGGGAGGUGGAUUUUGUUUAUUUUUUUAGCUCAUGUCCAGGGGUGGGAAUUUUUUUUUAAUAUGUGUCAUGAAUAAAGUUGUUUUUGAAAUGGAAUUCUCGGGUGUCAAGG: -0.0511
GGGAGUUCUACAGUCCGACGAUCUGGGAGGUGGAUUUUGUUUAUUUUUUUAGCUCAUUUCCAGGGGUGGGAAUUUUUUUUUAAUAUGUGUCAUGAAUAAAGUUGUUUUUGACAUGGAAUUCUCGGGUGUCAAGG: -0.299
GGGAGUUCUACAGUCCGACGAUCAGUCCUGUGCUACACAUCGUAUGUACCGAAUCGGGGUUUUGGUUUUGGGGUUUUGGGGAAAGUAUUAUGUUACGCCGUUCGGAUCUGCACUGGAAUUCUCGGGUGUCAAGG: -0.63

Block 5
Target: Histone acetyltransferase KAT6A, winged helix 1, GST fusion (KAT6A, Homo sapiens, UniProt Q92794, residues 1-85)
Technique: protein binding microarray
Form: double-stranded DNA, one strand shown
Sample: in vitro
Tested at: not given
Notes: 8-mer, flanks averaged, mean of 2 arrays, mostly near background
Reference: not given
Direction: higher = stronger binding
Endpoint: E-score
Construct (chain): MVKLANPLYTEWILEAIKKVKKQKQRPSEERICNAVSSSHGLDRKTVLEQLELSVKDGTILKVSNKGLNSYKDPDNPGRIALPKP
CAGTCGAA: -0.131
AATGGTCT: -0.159
ACGGCTCA: 0.207
AAAATCAT: -0.175
AGTTCCAT: -0.14
AACTCGAA: -0.163
CGAGCTTC: -0.0265
CGGTTTGC: 0.279
GGCTCGAA: -0.103
AGAACGCC: -0.0104
CCCGGCCC: 0.263
CAAACACA: -0.231
CATGAGAC: -0.136
GAAGCTGA: -0.00721
AGGCCTTC: -0.216
TACGGATA: 0.131
GGCGACAC: 0.332

Block 6
Target: Prothrombin, mature alpha-thrombin (F2, Homo sapiens, UniProt P00734)
Technique: aptamer microarray, sandwich
Form: DNA with 2'F-ANA
Sample: in vitro
Tested at: 200 nM
Notes: whole 15-mer aptamer, many near background
Together with: Cy3 exosite-II aptamer, 400 nM
Direction: higher = stronger binding
Endpoint: mean fluorescence intensity
Strand: GGTTGGTGTGGTTGG
2'F-ANA at 7 10 12: 272 a.u.
2'F-ANA at 4 6 8 10 11 14: 76.3 a.u.
2'F-ANA at 2 4 5 6 7 9 12 13 15: 78.3 a.u.
2'F-ANA at 1 2 4 5 6 8 10 13 14 15: 50.2 a.u.
2'F-ANA at 5 6 7 9 11 14 15: 46.5 a.u.
2'F-ANA at 2 3 6 8 10 11 14 15: 222 a.u.
2'F-ANA at 1 2 3 4 5 7 9 12 14: 46.3 a.u.
2'F-ANA at 6 10 14: 112 a.u.
2'F-ANA at 6 7 8 11 12 14 15: 247 a.u.
2'F-ANA at 2 3 7 8 9 12 13 14 15: 458 a.u.
2'F-ANA at 1 2 3 5 6 7 8 11: 66.8 a.u.
2'F-ANA at 2 3 5 10 12 13 14: 46.6 a.u.
2'F-ANA at 4 6 7 8 10 12 14 15: 61.4 a.u.
2'F-ANA at 2 3 4 5 9 11 12 13 15: 494 a.u.
2'F-ANA at 6 10 12 15: 199 a.u.
2'F-ANA at 1 3 4 5 7 8 9 10 13: 45.2 a.u.
2'F-ANA at 2 5 6 13: 82.5 a.u.
2'F-ANA at 5 7 10 13 14 15: 42.7 a.u.
2'F-ANA at 1 2 3 4 6 9 11 13 14 15: 55.5 a.u.
2'F-ANA at 1 2 3 4 5 6 7 11 13: 50 a.u.
2'F-ANA at 1 4 7 14 15: 140 a.u.
2'F-ANA at 1 2 4 6 9 11 13: 74.2 a.u.
2'F-ANA at 4 15: 393 a.u.
2'F-ANA at 1 2 3 4 5 7 9 10 12 13 14 15: 45.4 a.u.
2'F-ANA at 2 3 4 11 13 14: 257 a.u.

Repeated from above (block 1):
P1M: 0.0374
R6Y: -0.117
R6S: -0.158
P13H: 0.353
L7C: 0.0865
P1I: 0.181
F9G: 0.349
P1L: -0.21
